Assay results pooled from the literature.
Protocols differ between the studies behind these lines. “And” joins repeats or separate records; there may be more than shown. Numbers after ± are the reported error.

For `C=CC(=O)N1CC2C(=O)N(CCN(C)C)c3c(c4cc(Cl)c(-c5c(O)cccc5F)nc4n(-c4c(C)ccnc4C(C)C)c3=O)N2CC1C` (stereo not drawn), the tumour regression was 114% (SW837, mouse xenograft; oral, 30 mg/kg once daily).
For `COc1cnc2cccc(N3CCc4c(cc(Cn5ccnc5)cc4-c4cn(C)nc4C(F)(F)F)C3=O)c2c1`, the tumour volume was 159 mm3 and 170 mm3 and 128 mm3 and 171 mm3 and 154 mm3 and 146 mm3 (BALB/c nude mouse, MV4-11 xenograft; intraperitoneal, 50 mg/kg, day 10 after inoculation).
`CC1(C)CCC(CN2CCN(c3ccc(C(=O)NS(=O)(=O)c4ccc(NCC5CCOCC5)c([N+](=O)[O-])c4)c(Oc4cnc5[nH]ccc5c4)c3)CC2)=C(c2ccc(Cl)cc2)C1`: “tumour growth inhibition” 85% (mouse Toledo xenograft; oral, 50 mg/kg once daily, day 31).
`COC(=O)C1CN1S(=O)(=O)c1ccc2cc(C)ccc2c1` (stereo not drawn) has a tumour volume of 769 mm3 (mouse, Lewis lung carcinoma; ip, 100 mg/kg, 360 h).
For `CC[C@H](C)[C@@H]1NC(=O)[C@H](CCSC)NC(=O)[C@H](Cc2c[nH]c3ccccc23)NC(=O)[C@H](CC(N)=O)NC(=O)[C@@H](NC(=O)CCOCCOCCOCCNC(=O)CN2CCN(CC(=O)O)CCN(CC(=O)O)CC2)CSSC[C@@H](C(=O)O)NC(=O)[C@H](CCC(=O)O)NC(=O)[C@H](CCCCN)NC(=O)[C@H](CC(N)=O)NC1=O` [gallium-68 labelled], the tumour uptake was 0.28 ± 0.02 %ID/g (PET; mouse, CHO-hLAG-3 xenograft; iv, 60 min).
`CC(C)c1ccccc1[C@@H]1CCCN1C1CC2(CCN(c3ccc(C(=O)NS(=O)(=O)c4ccc(NC[C@H]5CC[C@](C)(O)CC5)c([N+](=O)[O-])c4)c(Oc4cnc5[nH]ccc5c4)c3)CC2)C1`: “tumour growth inhibition” 86% (mouse Maver1 xenograft; oral, 5 mg/kg once daily, day 14).
The tumour volume of `CO.Cc1ccc2c(Cl)cc(Cl)c([O-])c2n1.Cc1ccc2c(Cl)cc(Cl)c([O-])c2n1.[Co+2].c1ccc2nc3c4cccnc4c4ncccc4c3nc2c1` is reported as 613 ± 98.5 mm3 (nude mouse, HeLa xenograft; 2.0 mg/kg, end of treatment).
`CC(C)c1ccc(N(C)c2ccc3c(c2)OCC[C@H]3CNc2cnccc2C(=O)O)cc1` — result for “tumour growth inhibition”: 83% (mouse, OCI-LY19 xenograft; 15 mg/kg QD, day 21).
With `COc1cc(N2CCN(C(=O)C3CCCN3)CC2)ccc1Nc1ncc(Cl)c(Nc2ccccc2P(C)(C)=O)n1` (stereo not drawn) the tumour volume was 686 mm3 and 454 mm3 and 474 mm3 (NCI-H3122, mouse, H3122 xenograft; oral, 25 mg/kg every two days, 8 doses, 48 h).

Some of these lines once more:
For `CC[C@H](C)[C@@H]1NC(=O)[C@H](CCSC)NC(=O)[C@H](Cc2c[nH]c3ccccc23)NC(=O)[C@H](CC(N)=O)NC(=O)[C@@H](NC(=O)CCOCCOCCOCCNC(=O)CN2CCN(CC(=O)O)CCN(CC(=O)O)CC2)CSSC[C@@H](C(=O)O)NC(=O)[C@H](CCC(=O)O)NC(=O)[C@H](CCCCN)NC(=O)[C@H](CC(N)=O)NC1=O` [gallium-68 labelled], the tumour uptake was 0.28 ± 0.02 %ID/g (PET; mouse, CHO-hLAG-3 xenograft; iv, 60 min).
